Assay results gathered from unrelated publications.
Protocols differ between the studies behind these lines. Several values in a cell are separate wells, animals, samples, runs or records. ± marks the error that the study gave.

Structure (SMILES)	test	system	setting	how to read	quantity	result
COc1ccc(NC(=O)c2ccc3[nH]c(-c4ccc(N(C)C)cc4)nc3c2)cn1	–	CT26, BALB/c mice, subcutaneous syngeneic graft	dose not given, day 9	–	tumour volume	566 mm3 and 378 mm3 and 475 mm3 and 293 mm3 and 131 mm3
CC[C@H](C)[C@H](NC(=O)[C@H](Cc1ccc(O)cc1)NC(=O)[C@H](CCC(=O)O)NC(=O)CNC(=O)[C@H](CCC(=O)O)NC(=O)[C@H](CCCCN)NC(=O)[C@H](CCCCN)NC(=O)[C@H](CC(=O)O)NC(=O)[C@H](Cc1c[nH]cn1)NC(=O)[C@H](Cc1c[nH]cn1)NC(=O)[C@H](Cc1c[nH]cn1)NC(=O)[C@H](Cc1c[nH]cn1)NC(=O)[C@H](Cc1c[nH]cn1)NC(=O)[C@H](Cc1c[nH]cn1)NC(=O)[C@H](Cc1c[nH]cn1)NC(=O)[C@H](Cc1c[nH]cn1)NC(=O)[C@H](Cc1c[nH]cn1)NC(=O)[C@@H](N)Cc1c[nH]cn1)C(=O)N[C@@H](CCCCN)C(=O)N[C@@H](CC(C)C)C(=O)N[C@@H](CCCCN)C(=O)N[C@H](C(=O)N[C@H](C(=O)NCC(=O)N[C@@H](CCC(N)=O)C(=O)N[C@@H](CC(=O)O)C(=O)N[C@@H](CO)C(=O)N[C@@H](CO)C(=O)N[C@@H](CCC(=O)O)C(=O)N[C@H](C(=O)N[C@@H](Cc1c[nH]cn1)C(=O)N[C@@H](Cc1ccccc1)C(=O)N[C@@H](CCCCN)C(=O)N[C@H](C(=O)N[C@@H](CCCCN)C(=O)N[C@@H](CCSC)C(=O)N[C@H](C(=O)N[C@H](C(=O)N[C@@H](Cc1c[nH]cn1)C(=O)N[C@@H](CC(C)C)C(=O)N[C@@H](CCCCN)C(=O)N[C@@H](CCCCN)C(=O)N[C@@H](CC(C)C)C(=O)N[C@@H](CCCCN)C(=O)N[C@@H](CCC(=O)O)C(=O)N[C@@H](CO)C(=O)N[C@@H](Cc1ccc(O)cc1)C(=O)N[C@@H](CS)C(=O)N[C@@H](CCC(N)=O)C(=O)N[C@@H](CCCNC(=N)N)C(=O)N[C@@H](CCC(N)=O)C(=O)O)[C@@H](C)O)[C@@H](C)O)C(C)C)[C@@H](C)CC)[C@@H](C)CC)C(C)C	pseudopupil	Drosophila α-synuclein A53T transgenic	240 µM	reference: untreated	rhabdomere count mean difference	-2.32
O=C(CCCCCCc1ccccc1)c1ncc(-c2ccc(CBr)cn2)o1	–	mouse, chronic constriction injury, ipsilateral paw	i.p., 30 mg/kg, 1, 3, 6 h	–	cold allodynia	decreased
Cc1cn(CC(=O)N(CC(=O)N[C@H]2COC[C@@H]2N(CC(=O)NCCOCCOCC(N)=O)C(=O)Cn2cnc3c(N)ncnc32)[C@H]2COC[C@@H]2NC(=O)CN(C(=O)Cn2cnc3c(N)ncnc32)[C@H]2COC[C@@H]2NC(=O)CN(C(=O)Cn2cnc3c(=O)[nH]c(N)nc32)[C@H]2COC[C@@H]2NC(=O)CN(C(=O)Cn2cc(C)c(=O)[nH]c2=O)[C@H]2COC[C@@H]2NC(=O)CN(C(=O)Cn2cnc3c(=O)[nH]c(N)nc32)[C@H]2COC[C@@H]2NC(=O)CN(C(=O)Cn2cc(C)c(=O)[nH]c2=O)[C@H]2COC[C@@H]2NC(=O)CN(C(=O)Cn2cnc3c(N)ncnc32)[C@H]2COC[C@@H]2NC(=O)CN(C(=O)Cn2cnc3c(=O)[nH]c(N)nc32)[C@H]2COC[C@@H]2N)c(=O)[nH]c1=O	UV melting	DNA duplex with T·T mismatch	pH 7.2, 1 µM each strand	–	Tm	58.2 °C
COc1ccc(C(=O)CCc2cc(C(CCc3ccc(O)cc3OC)c3ccc(O)cc3)c(O)cc2OC)cc1 (racemic)	–	human blood	10 µM, together with: A23187	–	14-HDHA level	722 ± 188 pg/mL
Cc1ccc([N+](=O)[O-])cc1S(=O)(=O)N(C)/N=C/c1cnc2ccc(Br)cn12	–	peripheral blood mononuclear cells, Sézary syndrome patients	200 nM	–	live cells	42.8%
COC1CN([C@H]2CC[C@H]([C@@]3(C)Oc4c(Cl)cc(C(=O)NCc5c(SC)cc(C)[nH]c5=O)c(C)c4O3)CC2)C1	RNA-seq, item: PIAS2 mouse homolog	mouse, HT-1376 xenograft, whole blood	dose not given	reference: vehicle	log2 fold change	0.427
O=S(=O)(N[C@H]1CCO[C@@H](C2c3ccc(F)cc3CCc3cc(F)ccc32)C1)c1ccc(OC(F)(F)F)cc1	–	D341-Luc, athymic nude mouse	oral gavage, 75 mg/kg twice daily	reference: vehicle	leptomeningeal metastasis bioluminescence	decreased
Cc1cccc(NC(=O)CCN2CCN(C/C=C/c3ccccc3)CC2)c1	–	zebrafish larvae, 7 dpf	10 µM, minute 2	–	larval motion	5 ± 1 pixels/frame
NC[C@@H](C(=O)Nc1ccc(-c2cn[nH]c2)cc1)c1ccccc1	–	normotensive Macaca cyclopis, right eye	0.1 %, pre-dose	–	intraocular pressure	20.3 mmHg
Cc1cn(CC(=O)N(CCNC(=O)CN(CCNC(=O)CN(CCNC(=O)CN(CCNC(=O)CN(CCNC(=O)CN(CCNC(=O)CN(CCNC(=O)CN(CCN)C(=O)Cn2cnc3c(=O)[nH]c(N)nc32)C(=O)Cn2cnc3c(N)ncnc32)C(=O)Cn2cc(C)c(=O)[nH]c2=O)C(=O)Cn2cnc3c(=O)[nH]c(N)nc32)C(=O)Cn2cc(C)c(=O)[nH]c2=O)C(=O)Cn2cnc3c(=O)[nH]c(N)nc32)C(=O)Cn2cnc3c(N)ncnc32)CC(=O)NCCN(CC(=O)NCCOCCOCC(N)=O)C(=O)Cn2cnc3c(N)ncnc32)c(=O)[nH]c1=O	UV melting	DNA duplex with T·G mismatch	pH 7.2, 1 µM each strand	–	Tm	25.4 °C
Cc1cc(NC(=O)C(=O)N2C[C@@H](C)CC[C@@H]2c2ccc3scnc3c2)cnc1N	–	mouse, MTAP-deleted CDX and PDX models	120 mg/kg twice daily, 61 models	–	models with durable regression	~30%
Cc1cn(CC(=O)N(CC(=O)N[C@H]2CCC[C@@H]2N(CC(=O)N[C@H]2COC[C@@H]2N(CC(=O)N[C@H]2COC[C@@H]2N(CC(=O)N[C@H]2COC[C@@H]2N(CC(=O)NCCOCCOCC(N)=O)C(=O)Cn2cnc3c(N)ncnc32)C(=O)Cn2cc(C)c(=O)[nH]c2=O)C(=O)Cn2cnc3c(N)ncnc32)C(=O)Cn2cnc3c(=O)[nH]c(N)nc32)[C@H]2CCC[C@@H]2NC(=O)CN(C(=O)Cn2cnc3c(=O)[nH]c(N)nc32)[C@H]2CCC[C@@H]2NC(=O)CN(C(=O)Cn2cc(C)c(=O)[nH]c2=O)[C@H]2COC[C@@H]2NC(=O)CN(C(=O)Cn2cnc3c(N)ncnc32)[C@H]2COC[C@@H]2NC(=O)CN(C(=O)Cn2cnc3c(=O)[nH]c(N)nc32)[C@H]2COC[C@@H]2N)c(=O)[nH]c1=O	UV melting	DNA duplex with T·G mismatch	pH 7.2, 1 µM each strand	–	Tm	64.2 °C
CN(C)C(=O)c1ccnc(N2Cc3cn(Cc4ccc(F)cc4F)nc3C2)n1	–	mouse, hippocampal slice, Schaffer collaterals	dose not given, interstimulus interval 50	reference: second over first response	paired-pulse ratio	1.79 and 1.5 and 1.52 and 2.36 and 1.68 and 2.56 and 1.63 and 1.48
COc1cc(N2CCN(C(=O)C3CCCN3)CC2)ccc1Nc1ncc(Cl)c(Nc2ccccc2P(C)(C)=O)n1 (stereo not shown)	–	nude mice, NCI-H3122 xenograft	oral, 25 mg/kg every two days, day 7	–	tumour volume	131 mm3 and 87.3 mm3 and 22 mm3 and 46.5 mm3 and 85.9 mm3
CN1CCCNC(=O)c2cccc(c2)C(=O)NCCCN(C)CCCNc2cccc3c2C(=O)c2cccc(c2C3=O)NCCC1	–	SAS xenograft, KSN/Slc nude mice	dose not given, 192 h (day 8), group mean	–	tumour volume	249 mm3

Structure (SMILES)	test	system	setting	how to read	quantity	result
CN1CCC[C@]1(C)/C=C/S(=O)(=O)NC(=O)Nc1c2c(cc3c1CCC3)CCC2	–	human, whole blood ex vivo	50 mg single dose, 6 h, single ascending dose, together with: LPS and ATP	–	IL-1β inhibition	99.3%
Cc1cc(OCCOCCN(C)C)cc(C(C)C)c1	locomotor activity in dark	zebrafish larvae, 7 dpf	10 µM, minute 5, dark phase	–	larval motion	1.3 ± 0.4 pixels/frame
COc1cc(O)ccc1CCC(c1ccc(O)cc1)c1cc2c(c(C)c1O)OC(c1ccc(O)cc1)CC2 (mixture of isomers)	–	human blood	10 µM, together with: A23187	–	14-HDHA level	560 ± 142 pg/mL
CCc1cc(OCCOCCN(C)C)ccc1Cl	locomotor activity in dark	zebrafish larvae, 7 dpf	10 µM, minute 7, dark phase	–	larval motion	2 ± 1 pixels/frame
CC(=O)[O-].O.O.O.O.[Mn+2].[O-]c1ccc(Br)cc1C=NCCN1CCOCC1	DPPH radical scavenging	–	200 µM	–	inhibition	45.1%
O=C(CCN1CCN(C/C=C/c2ccccc2)CC1)Nc1ccccc1	locomotor activity in dark	zebrafish larvae, 7 dpf	10 µM, minute 1, dark phase	–	larval motion	2 ± 0.5 pixels/frame
CN(CCC#N)c1nc(NCC[C@H]2CCCN2C)nc2sc(-c3ccccc3)cc12	force-pCa relationship	C57BL/6N mice, skinned left ventricular papillary fibres	30 µM, 30 min, DMSO 13.36	–	maximal tension	10.9 mN
COc1cccc(OCC(O)CN2CCN(c3ccccc3OC)CC2)c1 (stereo not shown)	–	zebrafish larvae, 7 dpf	10 µM, minute 6	–	larval motion	4.3 ± 1.8 pixels/frame
CC(C)(C)NCC(SS(=O)(=O)O)c1ccccc1 (stereo not shown)	–	Swiss Webster mice, Schistosoma mansoni-infected	400 mg/kg single dose on day 42 post-infection, perfusion day 56 post-infection	reference: vehicle	spleen weight decrease	31%
Cc1cc(C)cc(NC(=O)CCN2CCCCCC2)c1	–	zebrafish larvae, 7 dpf	10 µM, minute 4	–	larval motion	22.3 ± 2.2 pixels/frame
CCC(=O)N[C@@H](C)C(=O)OCC(=O)N[C@@H](C)C(=O)O	–	water	pH 5, 50 °C	–	chain scission rate constant	0.0044 h⁻¹
O=C(CCN1CCN(C/C=C/c2ccccc2)CC1)Nc1ccc2c(c1)CCC2	locomotor activity in dark	zebrafish larvae, 7 dpf	10 µM, minute 3, dark phase	–	larval motion	4.8 ± 0.9 pixels/frame
COc1ccccc1-c1ccncc1C(=O)Nc1nnc(OCc2ccc(Cl)cc2)s1	–	Brca1 Δ11/Δ11 MEF sgGFP, Mus musculus	20 µM, mean of all runs	reference: 0 µM	colony survival	19.4%
O=C(CCN1CCN(C/C=C/c2ccccc2)CC1)Nc1ccccc1F	locomotor activity in dark	zebrafish larvae, 7 dpf	10 µM, minute 5, dark phase	–	larval motion	2 ± 0.8 pixels/frame
S=C(S)OC1CC2CC1C1CCCC21 (stereo not shown)	inhibitor, LC-MS/MS, item: Met- or Leu-enkephalin	mouse striatal brain slices	500 µM, 20 min, together with: 50 mM KCl	–	extracellular enkephalin concentration	398 pM and 594 pM and 389 pM and 658 pM and 749 pM and 91 pM and 101 pM and 108 pM
